Experimental data from different studies.
Compare with care: the assays were run in different laboratories. Numbers after ± are the reported error.

| SMILES | test | test system | conditions | scale | measurement | result |
| --- | --- | --- | --- | --- | --- | --- |
| O=C([O-])CN1CCN(CC(=O)[O-])CCN(CC(CCCc2ccccc2[N+](=O)[O-])N(CC(=O)[O-])CC(=O)[O-])CC1.[90Y+3] (stereo not drawn) | HPLC | human serum | 336 h, pH 7, 37 °C | – | intact radiolabelled complex | 100% |
| C=CC(=O)Nc1cc(Nc2nccc(-c3c[nH]c4ccccc34)n2)c(OC)cc1N(C)CCN(C)C | storage stability | human plasma | 24 h, -80 °C, LLOQ level | – | recovery | 99.8% |
| CCCCN1C(=O)c2cccc3c(NCCN4CCOCC4)ccc(c23)C1=O | – | DMF | – | – | fluorescence quantum yield | 0.02 |
| O=C([O-])CN1CCN(CC(=O)[O-])CCN(C(CO)C(O)CO)CCN(CC(=O)[O-])CC1.[Dy+3] (stereo not drawn) | ICP-MS | cynomolgus monkey | 8 h, MB study group | baseline: dose | cumulative urinary excretion | 83% |
| COC(=O)c1ccccc1-c1c2ccc(=O)cc-2oc2c1ccc1cccc(N)c12 | – | aqueous HCl 10% DMSO | pH 1.9 | – | extinction coefficient | 4000 |
| COc1cccc(OC)c1-c1cc(C(=O)NC2(C(=O)O)C3CC4CC(C3)CC2C4)nn1-c1ccc(C(=O)NCCNC(=O)[C@H](CCCCNC(=O)[C@H](CC(C)C)NC(=O)C2OC2C(=O)O)NC(=O)CN2CCN(CC(=O)[O-])CCN(CC(=O)[O-])CCN(CC(=O)[O-])CC2)cc1C(C)C.[177Lu+3] (mixture of isomers) | – | mouse, HT-29 xenograft | 24 h post injection, biodistribution | baseline: tumour over lung uptake | tumour-to-lung ratio | 3.58 |
| OC1(C(F)(F)F)CCN(c2nc(Nc3ccnc(C(F)(F)F)c3)nc(-c3cccc(C(F)(F)F)n3)n2)C1 (stereo not drawn) | – | Sprague-Dawley rat, both sexes, plasma | intravenous, 1 mg/kg | – | AUC(0-24h) | 802 ± 110 ng·h/mL |
| O=C(Nc1cnccc1-c1ccc([18F])nc1)c1ccnc(NC(=O)C2CC2)c1 | – | FVB/NJ mice (both sexes), hippocampus | intravenous, dose not given, 120 min, together with: tariquidar 15 mg/kg i.v. pre-dose | – | SUV | 0.085 |
| CC(C)(O)c1ncc([S@](N)(=O)=NC(=O)Nc2c3c(cc4c2CCC4)CCC3)s1 | refers to: infections and infestations | healthy human volunteers | oral, 50 mg twice daily, 14 days, enteric-coated tablet | – | subjects with adverse events | 14% |
| O=C([O-])CN1CCN(CC(=O)[O-])CCN(CC(=O)NCC2CCC(C(=O)NC(Cc3ccc4ccccc4c3)C(=O)NCCCCC(NC(=O)NC(CCC(=O)O)C(=O)O)C(=O)O)CC2)CCN(CC(=O)[O-])CC1.[68Ga+3] (stereo not drawn) | micro-PET/CT | mouse 22Rv1 xenograft, tumour | 4 h post-injection | – | maximum tumour uptake | 9.27 ± 1.2 %ID/g |
| COc1cccc(OC)c1-c1cc(C(=O)NC2(C(=O)O)C3CC4CC(C3)CC2C4)nn1-c1ccc(C(=O)N(C)CCCN(C)C(=O)[C@H](CCCCNC(=O)[C@H](CC(C)C)NC(=O)C2OC2C(=O)O)NC(=O)CN2CCN(CC(=O)[O-])CCN(CC(=O)[O-])CCN(CC(=O)[O-])CC2)cc1C(C)C.[177Lu+3] (mixture of isomers) | – | mouse HT-29 xenograft | 24 h, biodistribution | baseline: tumour over small intestine | tumour-to-small intestine ratio | 12.2 |
| C=C(NC(=O)c1csc(-c2nc3c(cc2O)-c2nc(cs2)C(=O)NC(C(C)O)C(=O)NC(=C(C)OC)c2nc(cs2)C(=O)NC2c4nc(cs4)C(=O)NC(COC(=O)c4c5c6c(cccc6n4O)COC(=O)C(OC4CC(C)(O)C(N(C)C)C(C)O4)C2OC5)c2nc-3cs2)n1)C(N)=O (stereo not drawn) | – | ICR mice, Streptococcus pneumoniae ATCC 49169 infected, immunocompromised, blood | intravenous, 8 mg/kg/day twice daily | – | Tmax | 6.08 h |
